# Published values from different studies.
# “And” joins repeats or separate records; there may be more than shown. Numbers after ± are the reported error.
Structure (SMILES),test,system,setting,scale,quantity,result
N.N.[Cl][Pt][Cl],,"SAS xenograft, KSN/Slc nude mice","dose not given, day 2, group mean",,tumour volume,105 mm3
C=CC(=O)Nc1cc(Nc2ncc(Cl)c(Nc3ccccc3C(=O)C(=O)N(C)C)n2)c(OC)cc1N1CCN(C)CC1,RECIST v1.1 best response,human EGFR T790M NSCLC,"oral, 200 mg/day, per-protocol set",,patients with complete response,0%
CC1(C)C(=CC=C2CCCC(C=CC3=[N+](CCCCS(=O)(=O)[O-])c4ccc(S(=O)(=O)O)cc4C3(C)C)=C2Oc2ccc(S(=O)(=O)O)cc2)N(CCCCCC(=O)NCCCC[C@H](NC(=O)[C@H](CO)NC(=O)CNC(=O)CNC(=O)CNC(=O)[C@H](Cc2ccccc2)NC(=O)[C@H](CCCNC(=N)N)NC(=O)[C@@H]2CCCN2C(=O)[C@H](CC(N)=O)NC(=O)[C@@H]2CCCN2C(=O)[C@H](CO)NC(=O)[C@@H](N)CCCCN)C(N)=O)c2ccc(S(=O)(=O)O)cc21,NIR fluorescence endoscopy,"CPC;Apc mice, colonic adenoma",1.5 h,,tumour to background ratio,2.22
O=C(O)CNC(=O)c1cc2ccccc2n1Cc1ccc(Br)c2ccccc12,,"mouse, acute hyperuricaemia model, serum","oral, 2 mg/kg, individual animal data",,serum uric acid,850 µM and 706 µM and 602 µM
O=C(O)/C=C/C(=O)O.Oc1cccc2[nH]cc(CCNCc3ccccc3)c12,,C57BL/6J mice,"subcutaneous, 10 mg/kg, 30 min",,distance travelled,1880 ± 295 cm
C[C@H]1O[C@@H](O[C@H]2CC[C@@]3(C)[C@@H](CC[C@]4(C)[C@@H]3C=C[C@]35OC[C@@]6(CCC(C)(C)C[C@H]63)[C@@H](O)C[C@]54C)[C@]2(C)CO)[C@H](O)[C@@H](O[C@@H]2O[C@H](CO)[C@@H](O)[C@H](O)[C@H]2O)[C@H]1O,,"mouse, no ethanol, hepatic SIRT1 knockdown, liver","dose not given, high dose",,hepatic triglycerides,0.112 mmol/g protein and 0.0672 mmol/g protein and 0.0862 mmol/g protein and 0.059 mmol/g protein and 0.0387 mmol/g protein and 0.0741 mmol/g protein
[131I-].[Na+],,"human, paediatric low-risk differentiated thyroid carcinoma",30-100 mCi,,complete response after single dose,83.3%
CN1CCN(S(=O)(=O)c2cc([N+](=O)[O-])ccc2N(CCOS(C)(=O)=O)CCOS(C)(=O)=O)CC1,,"NSG mice, sample DC PDX","intraperitoneal, 25 mg/kg weekly x3",,event-free survival,> 54 days
CC[C@H](C)[C@@H]1NC(=O)[C@@H]2CCCN2C(=O)[C@H](CC(C)C)NC(=O)[C@H](CC(C)C)NC(=O)CNC(=O)[C@@H](NC(=O)[C@@H](NC(=O)[C@H](CC(=O)O)NC(=O)CNC(=O)[C@@H](NC(=O)[C@H](C)NC(=O)CNC(=O)[C@H](CCCCN)NC(=O)[C@H](CC(C)C)NC(=O)[C@H](CC(C)C)NC(=O)[C@H](CCCCN)NC(=O)CNC(=O)[C@@H](NC(=O)[C@@H](N)CC(C)C)C(C)C)C(C)C)C(C)C)CSSC[C@@H](C(=O)O)NC1=O,"RNA-seq, refers to: Pilrb2 mRNA","mouse traumatic brain injury, frontal cortex and hippocampus",dose not given,relative to: TBI plus compound vs TBI,log2 fold change,-3.15
CCCCCN1C[C@H](O)[C@@H](O)[C@H](O)[C@@H]1CO,,"Hexb-/- mice, male",300 mg/kg/day,,median survival,159 days
CCc1c(C)nc(-c2ccc(Cl)s2)nc1Nc1ccc(CC(=O)O)cc1,,"mice, chronic ethanol plus binge","intraperitoneal, 0.3 mg/kg daily, ethanol diet 4 weeks, dosed last two",relative to: vehicle,liver to body weight ratio,no effect
COc1ccc(-c2ccc3ncc4c(c3c2)n([C@@H]2CCN(C)CC2(F)F)c(=O)n4C)cn1,,"mouse, sample A orthotopic PDX","7.5 mg/kg x 10, with: 2.3 Gy radiation",,median survival,408 days
CCCCC1(CCCC)CN(c2ccccc2)c2cc(SC)c(OCC(=O)N[C@@H](C(=O)NCC(=O)O)c3ccccc3)cc2S(=O)(=O)C1,refers to: HDL cholesterol,"human, serum","5 mg once daily, day 11",,serum HDL-C,46 mg/dL
c1ccc2c(c1)Nc1ccccc1S2,,CT26 tumour-bearing mice,"intraperitoneal, 100 mg/kg equivalents daily, day 8",,tumour volume,1000 mm³
Cc1cc(-c2nc(C(=O)Nc3cc4oc(N5CCOCC5)nc4nc3N3CC[C@@H](O)C3)co2)ccn1,,"A20 PCNSL xenograft, mouse, intracranial tumour","oral, 100 mg/kg, two weeks",relative to: vehicle,median survival increase,61%

# A few entries again:
Structure (SMILES),test,system,setting,scale,quantity,result
CC[C@H](C)[C@@H]1NC(=O)[C@@H]2CCCN2C(=O)[C@H](CC(C)C)NC(=O)[C@H](CC(C)C)NC(=O)CNC(=O)[C@@H](NC(=O)[C@@H](NC(=O)[C@H](CC(=O)O)NC(=O)CNC(=O)[C@@H](NC(=O)[C@H](C)NC(=O)CNC(=O)[C@H](CCCCN)NC(=O)[C@H](CC(C)C)NC(=O)[C@H](CC(C)C)NC(=O)[C@H](CCCCN)NC(=O)CNC(=O)[C@@H](NC(=O)[C@@H](N)CC(C)C)C(C)C)C(C)C)C(C)C)CSSC[C@@H](C(=O)O)NC1=O,"RNA-seq, refers to: Pilrb2 mRNA","mouse traumatic brain injury, frontal cortex and hippocampus",dose not given,relative to: TBI plus compound vs TBI,log2 fold change,-3.15
